# Measured values gathered from unrelated publications.
# Each numbered part is a random draw from the data of one study; scales do not carry over between parts. Several values in a cell are separate wells, animals, samples, runs or records. ± marks the error that the study gave.
# UniProt Q04912, sequence (whole entry, looked up): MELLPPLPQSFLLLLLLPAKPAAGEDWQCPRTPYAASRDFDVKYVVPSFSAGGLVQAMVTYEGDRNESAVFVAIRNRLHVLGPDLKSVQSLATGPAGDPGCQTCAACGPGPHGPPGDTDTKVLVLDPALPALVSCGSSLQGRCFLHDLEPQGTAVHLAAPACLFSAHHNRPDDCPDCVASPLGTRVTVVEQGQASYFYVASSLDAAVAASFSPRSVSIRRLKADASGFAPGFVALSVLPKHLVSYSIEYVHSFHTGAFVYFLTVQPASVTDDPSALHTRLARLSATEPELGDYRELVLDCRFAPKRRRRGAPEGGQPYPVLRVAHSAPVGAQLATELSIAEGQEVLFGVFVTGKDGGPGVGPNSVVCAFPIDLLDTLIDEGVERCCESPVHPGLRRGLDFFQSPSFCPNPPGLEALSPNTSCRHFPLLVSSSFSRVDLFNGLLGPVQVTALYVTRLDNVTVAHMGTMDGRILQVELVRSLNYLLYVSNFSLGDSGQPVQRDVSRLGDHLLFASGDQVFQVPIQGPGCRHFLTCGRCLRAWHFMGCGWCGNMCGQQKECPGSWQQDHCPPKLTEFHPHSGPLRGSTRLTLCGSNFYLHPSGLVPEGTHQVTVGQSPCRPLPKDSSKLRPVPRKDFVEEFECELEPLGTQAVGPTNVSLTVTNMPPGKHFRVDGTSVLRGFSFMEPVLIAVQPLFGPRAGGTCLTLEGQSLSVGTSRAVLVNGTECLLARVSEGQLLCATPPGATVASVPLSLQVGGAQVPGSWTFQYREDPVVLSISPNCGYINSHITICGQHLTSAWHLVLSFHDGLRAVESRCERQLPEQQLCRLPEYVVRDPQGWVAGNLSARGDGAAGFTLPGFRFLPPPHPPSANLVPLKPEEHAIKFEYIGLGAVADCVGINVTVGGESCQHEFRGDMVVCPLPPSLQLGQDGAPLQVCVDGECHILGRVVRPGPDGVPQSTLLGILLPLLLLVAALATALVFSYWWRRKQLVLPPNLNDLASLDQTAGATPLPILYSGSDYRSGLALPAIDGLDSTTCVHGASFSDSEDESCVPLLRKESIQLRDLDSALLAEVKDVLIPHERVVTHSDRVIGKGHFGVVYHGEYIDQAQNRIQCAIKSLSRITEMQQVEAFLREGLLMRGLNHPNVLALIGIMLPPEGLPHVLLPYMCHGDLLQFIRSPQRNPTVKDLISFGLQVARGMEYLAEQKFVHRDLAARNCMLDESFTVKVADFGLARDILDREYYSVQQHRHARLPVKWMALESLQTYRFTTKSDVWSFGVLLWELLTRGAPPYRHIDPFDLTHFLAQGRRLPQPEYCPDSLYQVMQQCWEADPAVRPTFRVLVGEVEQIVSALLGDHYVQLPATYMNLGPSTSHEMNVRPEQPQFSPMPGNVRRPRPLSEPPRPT
# UniProt P42684, sequence (whole entry, looked up): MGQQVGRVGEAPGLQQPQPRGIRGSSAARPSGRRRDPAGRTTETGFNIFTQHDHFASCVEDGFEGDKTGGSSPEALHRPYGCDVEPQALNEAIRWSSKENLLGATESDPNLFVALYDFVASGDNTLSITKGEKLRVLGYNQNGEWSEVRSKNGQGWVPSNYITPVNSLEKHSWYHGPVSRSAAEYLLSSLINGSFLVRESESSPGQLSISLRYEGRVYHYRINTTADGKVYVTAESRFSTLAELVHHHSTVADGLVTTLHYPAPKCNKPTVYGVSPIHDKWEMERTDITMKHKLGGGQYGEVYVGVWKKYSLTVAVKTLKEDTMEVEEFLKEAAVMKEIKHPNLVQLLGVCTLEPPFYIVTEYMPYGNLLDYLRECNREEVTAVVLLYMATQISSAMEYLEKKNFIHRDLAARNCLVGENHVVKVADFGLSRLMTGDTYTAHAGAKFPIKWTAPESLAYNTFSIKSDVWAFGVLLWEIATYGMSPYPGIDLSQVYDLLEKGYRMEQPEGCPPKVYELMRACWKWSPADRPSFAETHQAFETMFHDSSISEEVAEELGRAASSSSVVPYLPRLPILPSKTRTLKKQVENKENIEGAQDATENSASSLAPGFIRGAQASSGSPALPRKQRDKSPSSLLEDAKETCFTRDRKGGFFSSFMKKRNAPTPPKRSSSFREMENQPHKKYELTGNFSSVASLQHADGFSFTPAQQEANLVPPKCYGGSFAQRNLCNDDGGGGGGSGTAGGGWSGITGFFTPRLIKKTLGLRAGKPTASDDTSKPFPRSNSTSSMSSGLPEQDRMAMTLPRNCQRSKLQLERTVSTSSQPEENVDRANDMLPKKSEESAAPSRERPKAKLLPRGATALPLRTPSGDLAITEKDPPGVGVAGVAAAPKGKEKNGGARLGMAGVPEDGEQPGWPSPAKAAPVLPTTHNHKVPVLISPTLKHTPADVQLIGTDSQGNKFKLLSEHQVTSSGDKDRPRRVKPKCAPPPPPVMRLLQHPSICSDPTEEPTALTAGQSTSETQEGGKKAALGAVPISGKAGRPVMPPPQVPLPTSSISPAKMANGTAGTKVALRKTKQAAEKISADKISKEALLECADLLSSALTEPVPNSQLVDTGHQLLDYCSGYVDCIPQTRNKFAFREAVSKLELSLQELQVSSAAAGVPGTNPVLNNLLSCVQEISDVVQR
# UniProt Q16816, sequence (whole entry, looked up): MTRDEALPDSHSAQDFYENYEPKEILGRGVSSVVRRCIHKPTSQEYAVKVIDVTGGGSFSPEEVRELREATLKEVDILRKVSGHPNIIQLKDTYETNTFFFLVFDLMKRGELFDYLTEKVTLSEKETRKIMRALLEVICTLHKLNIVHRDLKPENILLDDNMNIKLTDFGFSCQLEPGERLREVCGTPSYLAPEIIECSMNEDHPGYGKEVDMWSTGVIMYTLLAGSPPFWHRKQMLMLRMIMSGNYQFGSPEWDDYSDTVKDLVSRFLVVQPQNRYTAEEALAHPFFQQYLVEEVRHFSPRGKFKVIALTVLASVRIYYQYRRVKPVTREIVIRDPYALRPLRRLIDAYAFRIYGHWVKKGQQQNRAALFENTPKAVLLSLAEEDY

# Study 1
# Target: Sodium-dependent neutral amino acid transporter B(0)AT1 (SLC6A19, Homo sapiens, UniProt Q695T7)
# UniProt Q695T7, sequence (whole entry, looked up): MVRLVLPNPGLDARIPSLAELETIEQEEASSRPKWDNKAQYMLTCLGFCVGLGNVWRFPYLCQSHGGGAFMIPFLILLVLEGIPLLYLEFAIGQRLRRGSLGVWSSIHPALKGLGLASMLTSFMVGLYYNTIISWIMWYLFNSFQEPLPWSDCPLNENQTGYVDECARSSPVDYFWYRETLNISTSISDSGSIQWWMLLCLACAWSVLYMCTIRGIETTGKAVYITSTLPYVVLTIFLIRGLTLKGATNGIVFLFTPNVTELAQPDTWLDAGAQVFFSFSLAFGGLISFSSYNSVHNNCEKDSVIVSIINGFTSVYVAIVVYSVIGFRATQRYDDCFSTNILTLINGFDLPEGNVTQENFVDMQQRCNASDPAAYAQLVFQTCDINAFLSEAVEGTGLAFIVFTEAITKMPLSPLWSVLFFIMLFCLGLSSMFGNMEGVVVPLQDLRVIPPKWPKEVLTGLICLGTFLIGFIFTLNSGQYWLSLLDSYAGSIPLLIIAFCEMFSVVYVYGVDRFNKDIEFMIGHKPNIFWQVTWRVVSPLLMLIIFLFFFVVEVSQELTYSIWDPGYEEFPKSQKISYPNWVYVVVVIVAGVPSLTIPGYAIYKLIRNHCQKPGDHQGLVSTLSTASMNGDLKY
# Mode: inhibitor
# Technique: FLIPR membrane potential
# Cells: CHO-BC
SMILES,IC50 [µM]
CC(C)NC(=O)COc1cccc2ccccc12,6.31 ± 1.59
Cc1cc(NCC(=O)NC(C)C)cc(C)c1I,0.445 ± 0.0907
CC(C)NC(=O)COc1ccc(Cl)cc1,38.2 ± 33.7
Cc1cc(OCC(=O)NC(C)C)ccc1I,0.685 ± 0.039
CCNC(=O)COc1cc(C)c(Cl)c(C)c1,3.03 ± 0.342
CC(C)NC(=O)COc1ccc(I)cc1,6.15 ± 0.488
CC(C)NC(=O)COc1ccc(Br)cc1,9.6 ± 1.29
Cc1cc(OCC(=O)NC(C)C)ccc1Cl,2.07 ± 0.263
Cc1cc(NCC(=O)NC(C)C)cc(C)c1Br,1.08 ± 0.177
CC(C)NC(=O)COc1ccc2ccccc2c1,2.67 ± 0.35
CNC(=O)COc1cc(C)c(Cl)c(C)c1,15.6 ± 10.5
Cc1cc(NCC(=O)NC(C)C)cc(C)c1Cl,1.38 ± 0.0593
CCCNC(=O)COc1cc(C)c(Cl)c(C)c1,3.69 ± 1.55
Cc1cc(OCC(=O)NC(C)C)ccc1Br,1.06 ± 0.386

# Study 2
# Structure (SMILES): COCC1CC2C(CCC3C(O)CCC32)c2ccc(O)cc21 (stereo not drawn)
# Cell line: PANC-1
# Technique: DNA microarray
# Relative to: control
assay,conditions,fold change
measured: UBB mRNA,100 µM,0.607
measured: CCL22 mRNA,100 µM,12
measured: ADAMTS14 mRNA,25 µM,5.75
measured: UBB mRNA,25 µM,0.604
measured: ACTB mRNA,100 µM,0.615
measured: ADAMTS14 mRNA,100 µM,6.86
measured: ADAMTS8 mRNA,100 µM,32.6
measured: CCL22 mRNA,25 µM,25.2
measured: ADAMTS8 mRNA,25 µM,24.9
measured: ACTB mRNA,25 µM,0.608
measured: CCL1 mRNA (probe A_23_P49759),100 µM,7.09
measured: CCL1 mRNA (probe A_23_P49759),25 µM,5.07

# Study 3
# Compound: CN(C1COC1)C(C)(C)/C=C(\C#N)C(=O)N1CCC[C@H]1Cn1nc(-c2ccc(Oc3ccccc3)cc2F)c2c(N)ncnc21
# Read-out: kinase activity
target,conditions,inhibition
"JAK2 (Homo sapiens, UniProt O60674)",1 µM,-5%
"PIK3CA (Homo sapiens, UniProt P42336)",0.1 µM,-5%
"FER (Homo sapiens, UniProt P16591)",1 µM,3%
"PRKCA (Homo sapiens, UniProt P17252)",0.1 µM,-4%
"HASPIN (Homo sapiens, UniProt Q8TF76)",1 µM,-1%
"CAMK2B (Homo sapiens, UniProt Q13554)",0.1 µM,-3%
"MARK3 (Homo sapiens, UniProt P27448)",1 µM,0%
"MARK4 (Homo sapiens, UniProt Q96L34)",0.1 µM,3%
"DYRK2 (Homo sapiens, UniProt Q92630)",1 µM,-2%
"Insulin receptor (INSR, Homo sapiens, UniProt P06213)",0.1 µM,4%
"CAMK4 (Homo sapiens, UniProt Q16566)",0.1 µM,4%
"MST1R (Homo sapiens, UniProt Q04912)",0.1 µM,0%
"MAPK10 (Homo sapiens, UniProt P53779)",1 µM,-6%
"ABL2 (Homo sapiens, UniProt P42684)",1 µM,-1%
"PHKG1 (Homo sapiens, UniProt Q16816)",1 µM,1%

# Study 4
# Compound: CCN1/C(=C/C=C2\CCCC(/C=C/C3=[N+](CC)c4ccccc4C3(C)C)=C2NCCCCCCCCN2CCC(Nc3nc4ccccc4n3Cc3ccc(F)cc3)CC2)C(C)(C)c2ccccc21
# Cell line: U-87 MG
# Concentration: concentration not given
# Relative to: DMSO
assay,log2 fold change
measured: LMO7 mRNA,-1.63
measured: ZNF841 mRNA,0.891
measured: ABCC9 mRNA,1.64
measured: DLGAP5 mRNA,-2.29
measured: ASAH2 mRNA,0.818
measured: EXPH5 mRNA,1.61
measured: CCDC28B mRNA,-1.57
measured: CALM3 mRNA,-1.51
measured: GBP2 mRNA,-1.68
measured: SLC9A1 mRNA,1.07
measured: MTFR2 mRNA,-1.58

# Study 5
# SMILES: C[C@@H]1CN(c2ccc(-c3cc(C(=O)NCCOCCOCCOCCOCCNC(=O)Cn4cc(-c5[nH]cc(C(=O)N[C@@H](CC(N)=O)c6ccc(F)c(Cl)c6)c5-c5ccc(Cl)cc5F)cn4)ccc3F)cc2NC(=O)c2c[nH]c(=O)cc2C(F)(F)F)C[C@H](C)N1C
# Target: DDB1- and CUL4-associated factor 1 (DCAF1, Homo sapiens, UniProt Q9Y4B6)
# UniProt Q9Y4B6, sequence (whole entry, looked up): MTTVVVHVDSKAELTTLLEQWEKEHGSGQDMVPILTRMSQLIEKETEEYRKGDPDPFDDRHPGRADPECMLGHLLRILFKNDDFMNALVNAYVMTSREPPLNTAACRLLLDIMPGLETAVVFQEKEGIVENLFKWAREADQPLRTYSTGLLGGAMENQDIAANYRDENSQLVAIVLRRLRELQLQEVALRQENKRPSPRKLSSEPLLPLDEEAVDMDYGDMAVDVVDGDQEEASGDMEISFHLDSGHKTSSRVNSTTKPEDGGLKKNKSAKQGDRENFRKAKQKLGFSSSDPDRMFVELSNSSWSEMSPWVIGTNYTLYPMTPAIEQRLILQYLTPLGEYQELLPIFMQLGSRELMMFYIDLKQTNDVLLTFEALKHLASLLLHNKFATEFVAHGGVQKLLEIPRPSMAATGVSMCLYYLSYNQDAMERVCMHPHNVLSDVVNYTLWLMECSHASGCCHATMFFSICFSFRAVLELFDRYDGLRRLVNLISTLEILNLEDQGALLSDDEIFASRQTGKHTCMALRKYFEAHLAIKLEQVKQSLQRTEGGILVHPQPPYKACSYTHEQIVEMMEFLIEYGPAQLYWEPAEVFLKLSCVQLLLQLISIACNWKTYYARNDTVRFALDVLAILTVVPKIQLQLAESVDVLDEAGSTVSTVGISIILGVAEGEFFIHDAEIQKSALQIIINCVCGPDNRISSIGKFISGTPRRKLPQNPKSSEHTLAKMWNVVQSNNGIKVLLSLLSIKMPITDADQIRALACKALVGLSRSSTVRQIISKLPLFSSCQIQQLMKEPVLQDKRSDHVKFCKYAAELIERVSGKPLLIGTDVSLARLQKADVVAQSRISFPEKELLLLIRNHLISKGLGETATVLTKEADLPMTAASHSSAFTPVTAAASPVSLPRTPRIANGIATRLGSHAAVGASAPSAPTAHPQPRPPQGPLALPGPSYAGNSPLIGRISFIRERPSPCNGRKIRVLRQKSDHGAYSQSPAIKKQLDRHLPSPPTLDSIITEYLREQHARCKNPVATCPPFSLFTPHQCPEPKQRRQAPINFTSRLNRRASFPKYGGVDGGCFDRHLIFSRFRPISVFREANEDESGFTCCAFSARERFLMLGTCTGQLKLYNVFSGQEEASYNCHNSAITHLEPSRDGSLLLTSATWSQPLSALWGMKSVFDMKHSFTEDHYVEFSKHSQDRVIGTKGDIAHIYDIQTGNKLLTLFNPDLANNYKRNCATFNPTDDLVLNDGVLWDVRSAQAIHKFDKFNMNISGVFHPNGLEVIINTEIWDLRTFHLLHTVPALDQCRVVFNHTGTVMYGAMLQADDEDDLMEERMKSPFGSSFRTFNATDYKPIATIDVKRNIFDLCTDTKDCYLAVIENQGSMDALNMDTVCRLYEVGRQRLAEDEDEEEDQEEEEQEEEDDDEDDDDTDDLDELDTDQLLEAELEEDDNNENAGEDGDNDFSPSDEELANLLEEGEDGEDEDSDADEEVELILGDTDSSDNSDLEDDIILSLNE
# Read-out: thermal unfolding
# Technique: differential scanning fluorimetry
# Concentration: 5.5 µM
# Reading: higher = more unfolded
conditions,SYPRO Orange fluorescence [a.u.]
43.2 °C,11500
83.81 °C,40900
60.41 °C,40000
68.41 °C,55800
43.6 °C,11600
85.21 °C,39500
78.61 °C,45400

# Other studies, line by line
SMILES,tested on,assay,system,conditions,measurement,value
CCN1CCN(Cc2ccc(COc3c(-c4c(C)c(F)cc5[nH]ncc45)c(C4CC4)cc4c(N5C[C@@H]6C[C@H]5CN6)nc(OC5CCOCC5)nc34)cc2)C(=O)C1,A-375 (KRAS wild type),"in-cell ELISA, measured: phospho-ERK1/2",,"300 nM, 2 h",ERK1/2 phosphorylation,137% and 153% and 142%
Cc1ncsc1-c1ccc(C2(NC(=O)C3CC(O)CN3C(=O)C(NC(=O)c3ccc(COc4c(-c5c(C)c(F)cc6[nH]ncc56)c(C5CC5)cc5c(N6CC7CC6CN7)nc(OC6CCOCC6)nc45)cc3)C(C)(C)C)CC2)cc1 (stereo not drawn),"von Hippel-Lindau disease tumor suppressor, with Elongin B/C (VHL, Homo sapiens, UniProt P40337)","SPR, single-cycle",immobilized VCB complex,"binary, geometric mean",kon,31100 M⁻¹ s⁻¹
Cc1ncsc1-c1ccc(C(CO)NC(=O)C2CC(O)CN2C(=O)C(NC(=O)c2ccc(COc3c(-c4c(C)c(F)cc5[nH]ncc45)c(C4CC4)cc4c(N5CC6CC5CN6)nc(OC5CCOCC5)nc34)cc2)C(C)C)cc1 (stereo not drawn),AsPC-1,in-cell ELISA,,"10 nM, individual replicates",phospho-ERK1/2 level,93.4% and 92.1% and 88.2% and 94.3% and 92.6% and 94.4%
Cc1ncsc1-c1ccc(C(CO)NC(=O)C2CC(O)CN2C(=O)C(C(C)C)n2cc(-c3ccc(COc4c(-c5c(C)c(F)cc6[nH]ncc56)c(C5CC5)cc5c(N6CC7CC6CN7)nc(OC6CCOCC6)nc45)cc3)nn2)cc1 (stereo not drawn),"GTPase KRas (KRAS, Homo sapiens, UniProt P01116, G12D)","degrader, In-Cell ELISA",AsPC-1 (KRAS G12D),"24 h, geometric mean",DC50,0.0381 µM

# For quick reference, copied from above (study 2):
assay,conditions,fold change
measured: CCL22 mRNA,100 µM,12
measured: ADAMTS14 mRNA,25 µM,5.75
measured: UBB mRNA,25 µM,0.604
measured: ACTB mRNA,100 µM,0.615
measured: ADAMTS14 mRNA,100 µM,6.86
measured: ADAMTS8 mRNA,100 µM,32.6
measured: CCL22 mRNA,25 µM,25.2
measured: ADAMTS8 mRNA,25 µM,24.9
